Measured values collected from several papers.
Each line is one published result; not all experiments were run side by side. Several values in a cell are separate wells, animals, samples, runs or records. ± marks the error that the study gave. In brackets after ≈: the same amount, converted by molar mass.

O=S(=O)(c1ccc(-c2ccc3ncnc(Nc4ccc(OCc5ccccc5F)c(Cl)c4)c3c2)cc1)N1CCOCC1  EC50 (Plasmodium falciparum; parasite growth, SYBR Green; D6; blood stage): 130 nM
CCOC(=O)C1(Cc2ccccc2)Oc2cc(F)ccc2N(Cc2ccccc2)C1=O (stereo not shown)  root length inhibition (Arabidopsis thaliana; Col-0, seed germination, dark; 200 µg/mL, 7 days, 22 °C): 81.3%
COc1ccc(C2=[N+]([O-])c3ccccc3N3CCN=C23)cc1  MIC90 (Fusobacterium nucleatum): ≤ 0.06 µg/mL
[2H]C([2H])(c1cc(F)c(F)cc1F)n1c(=O)n(Cc2ncn(C)n2)c(=O)[nH]/c1=N\c1cc2cn(C)nc2cc1Cl  IC50 (feline infectious peritonitis virus; viral replication, qRT-PCR; CRFK; 48 h): 50400 nM
CC(O)CN(CC(C)O)CC(C)O.O=C(O)C(Cl)Cl (stereo not shown)  herbicidal inhibition (Xanthium sibiricum; 15 mg/mL, 21 days, pre-emergence, greenhouse): 0%
O=C(NNc1ccc(Cl)cc1)c1nnc(CC23CC4CC(CC(C4)C2)C3)o1  inhibition (Botryosphaeria dothidea; fungal growth, inhibitor; 50 µg/mL): 100%
CNCCO.O=C(O)C(Cl)Cl  herbicidal inhibition (Xanthium sibiricum; 15 mg/mL, 21 days, post-emergence, greenhouse): 0%
Cn1ncc2c(Nc3ccccc3Cl)nc(Nc3ccccc3Cl)nc21  IC50 (HIV-1 subtype C; viral replication; 96 h): 94400 nM
CCCCCC(=O)NCCCC[C@H](NC(=O)CCCCC)C(=O)N[C@@H](CCCCNC(=O)CCCCC)C(=O)NCC(=O)NCC(=O)NCC(=O)N[C@@H](CS)C(=O)N[C@@H](CCCNC(=N)N)C(=O)N[C@@H](CCCCN)C(=O)N1CCC[C@H]1C(=O)N[C@@H](CS)C(=O)N[C@@H](CCCNC(=N)N)C(=O)N[C@@H](CCCCN)C(=O)N1CCC[C@H]1C(N)=O  MIC (Candida albicans; broth microdilution; SP 3903, RPMI-1640; 48 h, 30 °C): 32 µM (≈ 54.7 µg/mL)
CCOC(=O)C1(Cc2ccccc2C#N)Oc2cc(F)ccc2N(Cc2ccccc2C#N)C1=O (stereo not shown)  inhibition (Arabidopsis thaliana; root length, petri dish germination; Col-0, 1/2 MS medium; 200 µg/mL, 7 days, 22 °C, dark): 55.3%
CC[C@H](C)CCCCC(=O)N[C@@H](CCN)C(=O)N[C@H](C(=O)N[C@@H](CCN)C(=O)N[C@H]1CCNC(=O)[C@H]([C@@H](C)O)NC(=O)[C@H](CCN)NC(=O)[C@H](CCN)NC(=O)[C@H](CC(C)C)NC(=O)[C@@H](CC(C)C)NC(=O)[C@H](CCN)NC1=O)[C@@H](C)O  MIC fold change (Escherichia coli; daily serial passaging; ATCC 8739; highest sub-MIC, 26 days; reference: initial MIC): 2.05
CCCCCCCCCCCC(=O)NCCCC[C@H](NC(=O)CCCCCCCCCCC)C(=O)N[C@@H](CCCCNC(=O)CCCCCCCCCCC)C(=O)NCC(=O)NCC(=O)NCC(=O)N[C@@H](CS)C(=O)N[C@@H](CCCNC(=N)N)C(=O)N[C@@H](CCCCN)C(=O)N1CCC[C@H]1C(=O)N[C@@H](CS)C(=O)N[C@@H](CCCNC(=N)N)C(=O)N[C@@H](CCCCN)C(=O)N1CCC[C@H]1C(N)=O  MIC (Candida albicans; broth microdilution; SP 3902, RPMI-1640; 48 h, 30 °C): > 128 µM
CCCN1C(=O)C(CCC)(C(=O)OCC)Oc2cc(F)ccc21 (stereo not shown)  inhibition (Arabidopsis thaliana; root length, petri dish germination; Col-0, 1/2 MS medium; 200 µg/mL, 7 days, 22 °C, dark): 100%
CCc1nn(C)c2nc(-c3ccc(C(=O)O)cc3)nc(NCc3ccccc3)c12  parasite number (Cryptosporidium parvum; HCT-8; 12 x EC90, 48 h; reference: DMSO control): 29.1% and 33.3% and 30.2% and 34.8%
O=S(=O)(c1ccc(-c2ccc3ncnc(Nc4ccc(OCc5cccc(F)c5)c(Cl)c4)c3c2)cc1)N1CCNCC1  EC50 (Plasmodium falciparum; parasite growth, SYBR Green fluorescence; W2, drug-resistant): 200 nM
CN(C(=O)c1ccn2ncc(-c3ccc(C(N)=O)cc3)c2c1)c1ccc(C#N)cn1  faecal Nluc luminescence (Cryptosporidium parvum; UGA1 Nluc, IFN-gamma knockout C57BL/6 mice, faeces; oral, 10 mg/kg daily, 96 h post infection, treatment days 3-9; higher means more parasites): 1670 a.u. and 169 a.u. and 601 a.u. and 96 a.u. and 2760 a.u.
CCOC(=O)C1(Cc2cc(OC)cc(OC)c2)Oc2cc(F)ccc2N(Cc2cc(OC)cc(OC)c2)C1=O (stereo not shown)  inhibition (Arabidopsis thaliana; root length, petri dish germination; Col-0, 1/2 MS medium; 50 µg/mL, 7 days, 22 °C, dark): 31%
CCCCCOc1ccc(-c2ccc3ncnc(Nc4ccc(OCc5cccc(F)c5)c(Cl)c4)c3c2)c(F)c1F  EC50 (Plasmodium falciparum; parasite growth, SYBR Green fluorescence; W2, drug-resistant): > 15000 nM
Cc1ccc(N2CC3CC(C2)N3C)cc1C(=O)NC1(c2ccc3c4c(cccc24)C(=O)N3C)CC1  inhibition (Betacoronavirus 1; viral replication; Huh-7, OC43; 50 µM): 79%
CCN1CCN(Cc2ccc(CNc3nc(N(C)C)nc(N(C)C)c3/N=N/c3ccc(Cl)cc3)cc2)CC1  mortality (Plutella xylostella; leaf dipping; 200 mg/L, 96 h): 86.7 ± 5.8%
O=S(=O)(c1ccc(-c2ccc3ncnc(Nc4ccc(OCc5cccc(F)c5)c(Cl)c4)c3c2)cc1)N1CCOCC1  EC50 (Plasmodium falciparum; parasite growth, SYBR Green fluorescence; C235 (TM91C235), drug-resistant): 350 nM
CC(=O)c1c(O)c(C)c(O)c2c1OC1=CC(=O)C(=C(C)NCCCCOC3OC4OC5(C)CCC6C(C)CCC(C3C)C46OO5)C(=O)C12C (mixture of isomers)  mean survival time (Plasmodium berghei; ANKA GFP, mouse NMRI; intraperitoneal, 4 × 50 mg/kg): 5.3 days
CCCCCCCC(=O)NCCCC[C@H](NC(=O)CCCCCCC)C(=O)N[C@@H](CCCCNC(=O)CCCCCCC)C(=O)NCC(=O)NCC(=O)NCC(=O)N[C@@H](CS)C(=O)N[C@@H](CCCNC(=N)N)C(=O)N[C@@H](CCCCN)C(=O)N1CCC[C@H]1C(=O)N[C@@H](CS)C(=O)N[C@@H](CCCNC(=N)N)C(=O)N[C@@H](CCCCN)C(=O)N1CCC[C@H]1C(N)=O  MIC (Candida albicans; broth microdilution; SP 3931, RPMI-1640; 48 h, 30 °C): 16 µM (≈ 28.7 µg/mL)
Fc1cccc(COc2ccc(Nc3ncnc4ccc(-c5cccc(-n6cccn6)c5)cc34)cc2Cl)c1  EC50 (Plasmodium falciparum; parasite growth, SYBR Green; D6; blood stage): > 15000 nM
CC(C)[C@H]1NC(=O)[C@H](Cc2ccccc2)NC(=O)[C@@H](C(C)C)NC(=O)[C@@H](C)NC(=O)[C@H](CO)NC(=O)[C@@H](Cc2c(-c3ccc(-c4ccc(-c5ccccc5)cc4)cc3)[nH]c3ccccc23)NC(=O)[C@@H](CO)NC1=O  MIC90 (Candida albicans; broth dilution): > 50 µM
CS(=O)(=O)c1ccc(-c2ccc3ncnc(Nc4ccc(OCc5cccc(F)c5)c(Cl)c4)c3c2)cc1  EC50 (Plasmodium falciparum; parasite growth, SYBR Green fluorescence; W2, drug-resistant): 360 nM
CC(C)C[C@H](NC(=O)CNC(=O)[C@H](CCCCN)NC(=O)[C@@H](N)CC(C)C)C(=O)N[C@@H](C)C(=O)N[C@@H](C)C(=O)N[C@@H](CCCCN)C(=O)N[C@@H](CC(C)C)C(=O)N[C@@H](CC(C)C)C(=O)NCC(=O)N[C@@H](CC(C)C)C(=O)N[C@@H](CCCCN)C(=O)N[C@@H](CCCCN)C(=O)O  inhibition (Candida albicans; growth; ATCC 10231, potato dextrose broth; 128 µM, 30 °C): 0.934 fraction (0-1)
CCOC(=O)C1(Cc2cc(F)cc(F)c2)Oc2cc(F)ccc2N(Cc2cc(F)cc(F)c2)C1=O (stereo not shown)  inhibition (Arabidopsis thaliana; stem length, petri dish germination; Col-0, 1/2 MS medium; 50 µg/mL, 7 days, 22 °C, dark): 27.3%
COc1ccc(C2=[N+]([O-])c3ccccc3N3CC(C)(C)CN=C23)cc1  MIC90 (Fusobacterium nucleatum): 0.25 µg/mL
Cc1cc(C(=O)Nc2nc3cccc(C)c3n2[C@H]2CCCCN(C(=O)/C=C/CN(C)C)C2)ccn1  parasite density (Trypanosoma brucei; 2T1 CLK1 over-expression uninduced; concentration not given): 1e+06 parasites/mL and 900000 parasites/mL and 800000 parasites/mL
CN(C)c1nc(NCc2ccccc2F)c(/N=N/c2ccc(Cl)cc2)c(N(C)C)n1  mortality (Plutella xylostella; leaf dipping; 200 mg/L, 96 h): 76.7 ± 5.8%
C[C@H]1[C@H](OC(=O)CCC(=O)OCc2nnn(-c3cc4ccc(O)cc4oc3=O)c2COC(=O)CCC(=O)O[C@@H]2O[C@@H]3O[C@@]4(C)CC[C@H]5[C@H](C)CC[C@@H]([C@H]2C)[C@@]35OO4)O[C@@H]2O[C@@]3(C)CC[C@H]4[C@H](C)CC[C@@H]1[C@@]24OO3  cured mice (Plasmodium berghei; NK65/GFP, infected mice; oral gavage, 65 µmol/kg once daily, 96 h dosing period): 0%
CCOC(=O)C1(Cc2ccc(C(F)(F)F)cc2)Oc2cc(F)ccc2N(Cc2ccc(C(F)(F)F)cc2)C1=O (stereo not shown)  inhibition (Arabidopsis thaliana; root length, petri dish germination; Col-0, 1/2 MS medium; 50 µg/mL, 7 days, 22 °C, dark): 30.1%
CC(=O)c1c(O)c(C)c(O)c2c1OC1=CC(=O)C(=C(C)NCCCC(=O)OC3OC4OC5(C)CCC6C(C)CCC(C3C)C46OO5)C(=O)C12C (stereo not shown)  mean survival time (Plasmodium berghei; ANKA GFP, NMRI mouse; oral, 4 x 3 mg/kg): 7 days
FC(F)(F)c1cccc(CNc2nc(NC3CCN(Cc4ccccc4)CC3)c3nc[nH]c3n2)c1  mRNA fold change (Cryptococcus neoformans; RNA-seq, measured: IPK1 (CNAG_01294); 48 µg/mL, 3 h; reference: untreated): 1.15
CCOC(=O)C1(Cc2ccc(OC)cc2)Oc2cc(F)ccc2N(Cc2ccc(OC)cc2)C1=O (stereo not shown)  inhibition (Arabidopsis thaliana; stem length, petri dish germination; Col-0, 1/2 MS medium; 50 µg/mL, 7 days, 22 °C, dark): 38.5%
Fc1cccc(COc2ccc(Nc3ncnc4ccc(-c5ccccc5)cc34)cc2Cl)c1  EC50 (Plasmodium falciparum; parasite growth, SYBR Green fluorescence; C235 (TM91C235), drug-resistant): 1160 nM
CCOC(=O)C1(Cc2ccc([N+](=O)[O-])cc2)Oc2cc(F)ccc2N(Cc2ccc([N+](=O)[O-])cc2)C1=O (stereo not shown)  inhibition (Arabidopsis thaliana; root length, petri dish germination; Col-0, 1/2 MS medium; 200 µg/mL, 7 days, 22 °C, dark): 56.1%
O=C(c1ccc(-c2ccc3ncnc(Nc4ccc(OCc5cccc(F)c5)c(Cl)c4)c3c2)cc1)N1CCOCC1  EC50 (Plasmodium falciparum; parasite growth, SYBR Green fluorescence; W2, drug-resistant): 860 nM
C[C@H](NC(=O)[C@@H](O)c1cc(F)cc(F)c1)C(=O)N[C@@H]1C(=O)N(C)c2ccccc2-c2ccccc21  inhibition (dengue virus 2; viral infection, luciferase reporter virus; 100 nM, 48 h): 99.9%

Excerpt of the above:
Fc1cccc(COc2ccc(Nc3ncnc4ccc(-c5ccccc5)cc34)cc2Cl)c1  EC50 (Plasmodium falciparum; parasite growth, SYBR Green fluorescence; C235 (TM91C235), drug-resistant): 1160 nM
CN(C)c1nc(NCc2ccccc2F)c(/N=N/c2ccc(Cl)cc2)c(N(C)C)n1  mortality (Plutella xylostella; leaf dipping; 200 mg/L, 96 h): 76.7 ± 5.8%
Cn1ncc2c(Nc3ccccc3Cl)nc(Nc3ccccc3Cl)nc21  IC50 (HIV-1 subtype C; viral replication; 96 h): 94400 nM
